Assay results from different studies.
A part holds a random share of what one study measured. Positions count from the first letter of the parent shown.
Chain of UniProt Q01959 (whole entry, looked up): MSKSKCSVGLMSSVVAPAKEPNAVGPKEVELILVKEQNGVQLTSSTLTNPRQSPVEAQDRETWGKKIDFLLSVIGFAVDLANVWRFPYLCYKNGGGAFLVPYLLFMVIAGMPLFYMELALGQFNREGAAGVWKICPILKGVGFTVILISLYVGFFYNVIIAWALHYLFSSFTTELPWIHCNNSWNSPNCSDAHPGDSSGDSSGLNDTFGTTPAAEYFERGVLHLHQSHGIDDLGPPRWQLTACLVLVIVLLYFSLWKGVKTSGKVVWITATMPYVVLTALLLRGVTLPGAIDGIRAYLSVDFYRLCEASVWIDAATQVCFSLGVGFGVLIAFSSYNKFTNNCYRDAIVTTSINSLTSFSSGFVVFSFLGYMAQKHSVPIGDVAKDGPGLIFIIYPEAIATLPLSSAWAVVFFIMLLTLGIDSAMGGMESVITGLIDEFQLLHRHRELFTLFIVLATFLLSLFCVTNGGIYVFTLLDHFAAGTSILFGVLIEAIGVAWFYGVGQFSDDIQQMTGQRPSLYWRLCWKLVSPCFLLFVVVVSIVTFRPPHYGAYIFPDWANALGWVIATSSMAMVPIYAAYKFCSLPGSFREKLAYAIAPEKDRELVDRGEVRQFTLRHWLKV

Set 1
Target: UBE2A UBC core domain (UniProt P49459)
Chain of UniProt P49459 (whole entry, looked up): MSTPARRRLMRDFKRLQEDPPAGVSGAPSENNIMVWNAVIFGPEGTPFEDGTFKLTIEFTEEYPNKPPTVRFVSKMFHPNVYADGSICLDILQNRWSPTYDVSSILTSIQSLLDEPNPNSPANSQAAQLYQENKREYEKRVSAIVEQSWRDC
Method: yeast two-hybrid
Medium: yeast
Notes: mostly zero background
Baseline: not given
Direction: higher = stronger interaction
B1: DEF8 RING domain (UniProt Q6ZN54); chain AGRLGCSLTEIHTLFAKHIKLDCERCQAKGFVCELCREGDVLFPFDSHTSVCADCSAVFHRDCYYDNSTTCPKCARLSLRK
B2: ANAPC11 RING domain (UniProt Q9NYG5); chain GICRMAFNGCCPDCKVPGDDCPLVWGQCSHCFHMHCILKWLHAQQVQQHCPMCRQEWKFKE
B3: TRIM54 RING domain (UniProt Q9BYV2); chain SMDNLEKQLICPICLEMFSKPVVILPCQHNLCRKCANDVFQASNPLWQSRGSTTVSSGGRFRCPSCRHEVVLDRHGV
B4: RNF152 RING domain (UniProt Q8N8N0); chain ETLSQDSLLECQICFNYYSPRRRPKLLDCKHTCCSVCLQQMRTSQKDVRCPWCRGVTKLPPGFS
B5: TRIM31 RING domain (UniProt Q9BZY9); chain FVNKLQEEVICPICLDILQKPVTIDCGHNFCLKCITQIGETSCGFFKCPLCKTSVRKNAIRF
B6: RNF122 RING domain (UniProt Q9H9V4); chain AKKLQLYGQTCAVCLEDFKGKDELGVLPCQHAFHRKCLVKWLEVRCVCPMCNKPIASPSEAT
Sequence	lacZ reporter activity
B1 (DEF8 RING domain)	0
B2 (ANAPC11 RING domain)	0
B3 (TRIM54 RING domain)	0
FVKTVEDKYKCEKCHLVLCSPKQTECGHRFCESCMAALLSSSSPKCTACQESIVKDKVF (TRAF3 RING domain (UniProt Q13114))	0
B4 (RNF152 RING domain)	0
B5 (TRIM31 RING domain)	0
B6 (RNF122 RING domain)	0
LDAASGHPLVCPLCHGQYERPCLLDCFHDFCTGCLRGRATDGRLSCPLCQHQTLVKGPSG (Rnf207 RING domain (UniProt Q3V3A7))	0

Set 2
Target: CCNE1, cyclin fold, Cln2 fusion (human)
Method: yeast growth competition, sequencing
Medium: yeast
Notes: strong parent motif
Baseline: not given
Direction: higher = stronger binding
Starting sequence: viral docking peptide; KGVKRKLFAEDSS; partner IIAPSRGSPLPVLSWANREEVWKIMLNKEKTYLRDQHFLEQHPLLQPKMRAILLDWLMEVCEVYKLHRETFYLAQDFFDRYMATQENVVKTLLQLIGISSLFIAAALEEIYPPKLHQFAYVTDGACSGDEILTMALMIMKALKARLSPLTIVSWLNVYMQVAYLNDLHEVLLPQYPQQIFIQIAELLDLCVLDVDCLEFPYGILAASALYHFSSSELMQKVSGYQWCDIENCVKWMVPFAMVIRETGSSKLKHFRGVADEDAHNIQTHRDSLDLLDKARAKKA
Substitution	normalised enrichment score
F8N	0.305
F8I	0.627
F8M	1.06
K4D	0.959
L7M	1.17
L7C	0.517
K4Y	3.44
K6C	6.24

Further values, each from its own experiment
Substance	target	effect on	method	molecule type	tested at	endpoint	value
CC1=C(C#N)[C@@H](c2ccc3[nH]nc(C)c3c2)C(C#N)=C(c2ccc(Cl)cc2)N1	SLC6A3 (Homo sapiens, UniProt Q01959)	binding	radioligand binding		10 µM	inhibition	-10.5%
VDFLEENI	Mamu-B*01 macaque	peptide-MHC binding		peptide	concentration not given	binding	inactive

Repeated from above (further values, each from its own experiment):
Substance	target	effect on	method	molecule type	tested at	endpoint	value
CC1=C(C#N)[C@@H](c2ccc3[nH]nc(C)c3c2)C(C#N)=C(c2ccc(Cl)cc2)N1	SLC6A3 (Homo sapiens, UniProt Q01959)	binding	radioligand binding		10 µM	inhibition	-10.5%
VDFLEENI	Mamu-B*01 macaque	peptide-MHC binding		peptide	concentration not given	binding	inactive
